# Published values gathered from unrelated publications.
# Parts stem from different laboratories: compare values within a part only. Several values in a cell are separate wells, animals, samples, runs or records.

# Study 1
# Structure (SMILES): C[C@@H]1CN(c2ccc(-c3cc(C(=O)NCCOCCOCCOCCOCCNC(=O)/C=C/c4[nH]cc(C(=O)N[C@@H](CC(N)=O)c5ccc(F)c(Cl)c5)c4-c4ccc(Cl)cc4F)ccc3F)cc2NC(=O)c2c[nH]c(=O)cc2C(F)(F)F)C[C@H](C)N1C
# Mode: degrader
# Time: 24 h
# WDR5/DCAF1: WDR5/DCAF1 (Homo sapiens, UniProt P61964+Q9Y4B6)
# WDR5: WD repeat-containing protein 5 (WDR5, Homo sapiens, UniProt P61964)
target,test,conditions,scale,remaining protein level
WDR5/DCAF1,HiBiT luminescence,585 nM,,87.4% and 78.1% and 66.7%
WDR5/DCAF1,HiBiT luminescence,10000 nM,,92% and 88.4% and 93.3%
WDR5,"Jess capillary immunoassay, measured: WDR5 over vinculin",2 nM,reference: DMSO,94.7% and 101% and 113% and 112% and 96.9% and 97.4%
WDR5/DCAF1,HiBiT luminescence,227 nM,,97% and 88.7% and 83.1%
WDR5,"Jess capillary immunoassay, measured: WDR5 over vinculin",141 nM,reference: DMSO,107% and 64.3% and 92.7% and 62.1% and 62% and 78.8%
WDR5,"Jess capillary immunoassay, measured: WDR5 over vinculin",25.7 nM,reference: DMSO,103% and 99.4% and 78.6% and 78.3% and 89.4% and 84.1%
WDR5/DCAF1,HiBiT luminescence,13.3 nM,,102% and 97.2% and 89%

# Study 2
# Target: Beta-3 adrenergic receptor (ADRB3, Homo sapiens, UniProt P13945)
# Observed: ligand displacement
# Tested at: 10 µM
Compound,inhibition [%]
O=C(NS(=O)(=O)c1ccc(NCC2CCOCC2)c([N+](=O)[O-])c1)c1ccc(N2CCN(Cc3ccc(C(F)(F)F)cc3-c3ccc(Cl)cc3)CC2)cc1Oc1cnc2[nH]ccc2c1,-21.1
C[C@@H](c1cccc(C#N)c1)n1cc(Cl)cc(C(N)=O)c1=N,-4.49
Cc1cc(Nc2nccc(C)n2)cc(-c2cnc([C@@]3(O)CC[C@H](C(=O)O)C(C)(C)C3)s2)c1,3.43
CN(C)c1ncnc(-c2ccc3nc(Nc4cc(CN5CCN(C(=O)CC(F)(F)F)CC5)ccn4)[nH]c3c2)c1Cl,4.42
COc1ccc2cc(OCC3(C(=O)O)CN(C(=O)c4ccc(F)cc4)C3)ccc2c1,-19.9
c1ccc(C2CCN(c3cnc4c(N5CCOCC5)nccn34)CC2)cc1,2.32
Cc1ccccc1Oc1cc(-n2c(=O)cc(C(F)(F)F)[nH]c2=O)c2ccccc2c1Cl,22.9
COc1cc(N[C@@H]2CCCC[C@]2(O)C(F)(F)F)ccc1F,34.2
COc1cccc(NC(=O)c2nc3scc(CN(C)Cc4ccccc4)c3c(=O)[nH]2)c1,-4.01
O=c1nc(-c2ccccn2)sc2ccccc12,20.1
O=C(Nc1ccc(Oc2ccc(F)cc2)cc1)N1CCc2ncccc2[C@H]1c1ccc(F)cc1,29.4
CC[C@H](CC(=O)O)n1c(=O)c2ncccc2n(Cc2cn(C)c3cc(C)cc(C)c23)c1=O,-6.54
CNC(=O)Nc1ccc2c(c1)CC[C@]21OC(=O)N(CC(=O)N(Cc2ccc(F)cc2)[C@@H](C)C(F)(F)F)C1=O,-13.9
CC1CCN(c2ccnc(NCc3cn(C)cn3)n2)CC1,-18.3
Cc1ccc(-c2cnc([C@@]3(O)CC[C@H](C(=O)O)C(C)(C)C3)s2)cc1Nc1cccc(C(F)(F)F)n1,-6.54
Cc1c(NC(=O)c2cc(C(N)=O)nc3cc(F)ccc23)c(C(F)(F)F)nn1Cc1ccc(C#N)cc1,-17.8
CN1CCN(C(=O)C(C)(C)c2ccc(C(=O)Nc3cn4cc(-c5cc(C(C)(C)C)cc(C(C)(C)C)c5)ccc4n3)cc2)CC1,78.1
Cn1nc(C(=O)NCc2ccc(C(=O)O)cc2)cc1-c1ccc2[nH]ccc2c1,2.13
Nc1nc(NCc2ccccc2)nc(-c2ccccc2CO)n1,14.8
CCC(=NO)C(C)=Cc1ccc(F)c(C)c1,11.1
c1ccc(N2CCN(Cc3nc4ccccc4[nH]3)CC2)nc1,21.7
Cn1cc(Cl)c2c(Oc3c(F)cc(Nc4cc(Cl)nc(N)n4)cc3F)ccnc21,3.48
CO[C@H]1CC[C@H](CNc2ccc(S(=O)(=O)NC(=O)c3ccc(N4CCN(CC5=C(c6ccc(Cl)cc6)CC(C)(C)CC5)CC4)cc3Oc3cnc4[nH]ccc4c3)cc2[N+](=O)[O-])CC1,-6.65
COc1cc(-c2cn(C3CCc4c(F)cccc4N(CC(F)(F)F)C3=O)nn2)ccc1-n1cnc(C)c1 (centres unmarked),15.7
CC(=O)Nc1ncc(CN2CCC[C@H](Cc3cc(C)nc(C)c3)C2)s1,-19.9

# Study 3
# Species: mouse
# Sample: microsomes or S9
# Tested at: 2 µM
# Time: 0.5 h
Structure (SMILES),remaining compound [%]
Cc1nc(C2=C(O)CN(C3CS(=O)(=O)CC3O)C2=N)sc1C (centres unmarked),70.4
Cc1[nH]c(C(=O)NCc2ccc3c(c2)OCO3)c(C)c1S(=O)(=O)N1CCCCCC1,86.6
CC1Cc2ccccc2N1S(=O)(=O)c1ccc2c(c1)c(=O)n(CC(=O)N1CCCC1)c(=O)n2C (centres unmarked),13.2
CC1(COC(=O)Nc2ccc(Cl)cc2)CCC(C(C)(C)C)=NO1 (centres unmarked),3.66
COC(=O)c1c[nH]c(S(=O)(=O)Cc2csc(Br)c2)n1,60.8
COC(=O)c1c(NS(C)(=O)=O)sc2c1CCCC2,3.37
CCCOc1ccccc1-c1nc2nn[nH]c2c(=O)[nH]1,59.5
COc1ccc(C)cc1NC(=O)c1cc2ccc3cccnc3c2[nH]1,0.0592

# Study 4
# Target: Diamine acetyltransferase 1 (Homo sapiens, UniProt P21673)
# Mode: inhibitor
# Tested at: 10 µM
# Reference: control
# Residues (P21673 1-171): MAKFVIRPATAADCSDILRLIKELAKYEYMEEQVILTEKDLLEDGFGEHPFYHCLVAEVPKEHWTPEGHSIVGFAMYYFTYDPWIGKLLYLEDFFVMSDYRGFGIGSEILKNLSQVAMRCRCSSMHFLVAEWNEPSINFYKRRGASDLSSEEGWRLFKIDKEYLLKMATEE
SMILES,remaining activity
COc1cc([C@@H]2OC[C@@H]3[C@H]2CO[C@H]3c2cc(OC)c(O)c(OC)c2)cc(OC)c1O,97.3%
CC(CC(=O)C[C@@H](C)[C@H]1CC(=O)[C@@]2(C)C3=C(C(=O)[C@@H](O)[C@]12C)[C@@]1(C)CC[C@H](O)C(C)(C)[C@@H]1C[C@@H]3O)C(=O)O (some centres unmarked),91.8%
COc1cc(/C=C/C(=O)NCCc2ccc(O)cc2)ccc1O,83.8%
CC(C)c1ccc2c(c1)CC[C@H]1[C@](C)(C(=O)O)CCC[C@]21C,102%
O=c1ccoc2cc(O)cc(O)c12,82.2%
C[C@H]1[C@H](C)CC[C@]2(C(=O)O)CC[C@]3(C)C(=CC[C@@H]4[C@@]5(C)C[C@@H](O)[C@H](O)C(C)(C)[C@@H]5CC[C@]43C)[C@H]12,97.1%
O=C[C@H](O)[C@@H](O)[C@H](O[C@H]1O[C@H](CO)[C@@H](O[C@H]2O[C@H](CO)[C@@H](O)[C@H](O)[C@H]2O)[C@H](O)[C@H]1O)[C@H](O)CO,97.6%
CCCCCCCCCC(C)O (centres unmarked),103%
COC(=O)c1ccc(O)cc1,92.6%
O=c1c(O)c(-c2ccc(O)c(O)c2)oc2cc(O[C@@H]3O[C@H](CO)[C@@H](O)[C@H](O)[C@H]3O)cc(O)c12,98.1%

# Excerpt of the above (study 3):
Structure (SMILES),remaining compound [%]
CC1(COC(=O)Nc2ccc(Cl)cc2)CCC(C(C)(C)C)=NO1 (centres unmarked),3.66
COC(=O)c1c[nH]c(S(=O)(=O)Cc2csc(Br)c2)n1,60.8
COC(=O)c1c(NS(C)(=O)=O)sc2c1CCCC2,3.37
CCCOc1ccccc1-c1nc2nn[nH]c2c(=O)[nH]1,59.5
COc1ccc(C)cc1NC(=O)c1cc2ccc3cccnc3c2[nH]1,0.0592
